Measured values gathered from unrelated publications.
± gives the spread as reported.
Cell line: Caco-2

| SMILES | assay | system | setting | how to read | endpoint | value |
| --- | --- | --- | --- | --- | --- | --- |
| O=C(N[C@@H](Cc1ccccc1)C(=O)N[C@@H](C[C@@H]1CCNC1=O)C(O)S(=O)(=O)O)OCc1ccccc1 (stereo partly drawn) |  |  | 5 (unit not given) |  | CC50 | 146 ± 9.1 µM |
| CC(C)C(=O)OC[C@H]1O[C@@](C#N)(n2ccc(N)nc2=O)[C@H](O)[C@@H]1O | cell growth or viability |  |  |  | CC50 | > 100 µM |
| CCC1CC(c2ccc(C(=O)O)cc2C)=NN1c1ccc(C#N)c(Cl)c1 (stereo not drawn) |  |  | 10 µM, 2 h |  | apparent permeability A to B | 9.7 ×10⁻⁶ cm/s |
| C#CCN(Cc1ccc2nc(C)[nH]c(=O)c2c1)C(=O)NC(CSCC(N)=O)c1cccc([N+](=O)[O-])c1 (stereo not drawn) |  |  |  | baseline: B-A over A-B | efflux ratio | 65 |
| N#Cc1ccc(N2N=C3c4ccc(C(=O)O)cc4CCC3C2C2CCCC2)cc1Cl (stereo not drawn) |  |  | 10 µM, 2 h |  | apparent permeability B to A | 4.8 ×10⁻⁶ cm/s |
| Cc1cc(-c2ccc3ccccc3c2)nnc1NCCN1CCN(C)CC1 | Caco-2 permeability | basolateral to apical | 5 µM, 0.5 h, with: valspodar 1.0 µM |  | recovery | 79% |
| O=C(O)c1cccc(CP(=O)(O)O)n1 | membrane integrity, CFDA-AM |  | 24 h, without 10% FBS |  | EC50 | > 250 µg/mL |
| C[C@@H]1O[C@@H](O[C@@H]2[C@@H](O)[C@H](O)[C@@H](CO)O[C@H]2c2c(O)cc(O)c3c(=O)cc(-c4ccc(O)cc4)oc23)[C@H](O)[C@H](O)[C@H]1O | CCK-8 |  | 2.5 µM, 24 h |  | viability | 103% |
| Cc1ccc(CNC(=O)c2ccn3c(-c4ccc(C#N)cc4)cnc3c2)cn1 |  |  |  |  | efflux ratio | 21.3 |
